Experimental data from different studies.
Several values in a cell are separate wells, animals, samples, runs or records. ± marks the error that the study gave.

| Structure (SMILES) | assay | test system | setting | scale | measurement | result |
| --- | --- | --- | --- | --- | --- | --- |
| CC(C)[C@@H]1NC(=O)CNC(=O)[C@H](CC(N)=O)NC(=O)[C@H](CCCNC(=N)N)NC(=O)[C@H](Cc2ccc(O)cc2)NC(=O)[C@H](C(C)C)NC(=O)[C@@H](NC(=O)[C@@H](NC(=O)[C@H](CC(N)=O)NC(=O)[C@H](Cc2c[nH]c3ccccc23)NC(=O)[C@H](C)NC(=O)[C@H](Cc2ccccc2)NC(=O)CNC(=O)[C@H](CCCCN)NC(=O)[C@H](Cc2ccccc2)NC(=O)[C@H](Cc2ccccc2)NC(=O)[C@H](CCCCN)NC(=O)OCC2c3ccccc3-c3ccccc32)C(C)C)CSSC[C@@H](C(=O)N[C@@H](Cc2c[nH]cn2)C(=O)N[C@@H](CCCNC(=N)N)C(=O)N[C@@H](CCCNC(=N)N)C(=O)N[C@@H](C)C(=O)N[C@@H](CC(N)=O)C(N)=O)NC(=O)[C@H](C(C)C)NC(=O)[C@H](CCCNC(=N)N)NC1=O |  | ICR mice, serum | intraperitoneal, 5 mg/kg, day 5 |  | ALT | 46.8 ± 3.14 IU/L |
| N=C(N)NCCC[C@H](NC(=O)[C@H](CCCNC(=N)N)NC(=O)[C@H](CCCNC(=N)N)NC(=O)[C@H](CCC(N)=O)NC(=O)[C@H](CCCNC(=N)N)NC(=O)[C@H](CCCNC(=N)N)NC(=O)[C@H](CCCCN)NC(=O)[C@H](CCCCN)NC(=O)[C@H](CCCNC(=N)N)NC(=O)CNC(=O)[C@H](Cc1ccc(O)cc1)NC(=O)[C@H](Cc1ccccc1)NC(=O)[C@H](Cc1ccccc1)NC(=O)[C@H](Cc1ccccc1)NC(=O)Cc1ccc2ccccc2c1)C(=O)O |  | C57BL/6 mice | intraperitoneal, 20 mg/kg, 6 h | direction not given | health score | 5 |
| CC(C)C[C@H](NC(=O)[C@@H](N)CO)C(=O)N[C@@H](Cc1c[nH]c2ccccc12)C(=O)N[C@@H](CCC(=O)O)C(=O)N[C@@H](CC(N)=O)C(=O)N[C@@H](Cc1ccccc1)C(=O)N[C@@H](CCCCN)C(N)=O |  | horse erythrocytes | 2 h, 37 °C | relative to: Triton X-100 | HC50 | > 128 µM |
| CSCC[C@H](N)C(=O)N[C@@H](C)C(=O)N[C@@H](CCCNC(=N)N)C(=O)N[C@@H](CCCNC(=N)N)C(=O)N[C@@H](CC(=O)O)C(=O)N[C@@H](CCCCN)C(=O)N[C@H](C(=O)N[C@@H](CC(=O)O)C(=O)N[C@@H](Cc1ccccc1)C(=O)N[C@@H](C)C(=O)N[C@@H](CCCNC(=N)N)C(=O)N[C@@H](CCCNC(=N)N)C(=O)N[C@@H](CCCNC(=N)N)C(=O)N[C@@H](CCCNC(=N)N)C(=O)NCCCCCC(=O)NCCCCC(NC(=O)CCCCCNC(=O)[C@H](CCCNC(=N)N)NC(=O)[C@H](CCCNC(=N)N)NC(=O)[C@H](CCCNC(=N)N)NC(=O)[C@H](CCCNC(=N)N)NC(=O)[C@H](C)NC(=O)[C@H](Cc1ccccc1)NC(=O)[C@H](CC(=O)O)NC(=O)[C@@H](NC(=O)[C@H](CCCCN)NC(=O)[C@H](CC(=O)O)NC(=O)[C@H](CCCNC(=N)N)NC(=O)[C@H](CCCNC(=N)N)NC(=O)[C@H](C)NC(=O)[C@@H](N)CCSC)[C@@H](C)O)C(=O)NCCCCC(NC(=O)C(CCCCNC(=O)CCCCCNC(=O)[C@H](CCCNC(=N)N)NC(=O)[C@H](CCCNC(=N)N)NC(=O)[C@H](CCCNC(=N)N)NC(=O)[C@H](CCCNC(=N)N)NC(=O)[C@H](C)NC(=O)[C@H](Cc1ccccc1)NC(=O)[C@H](CC(=O)O)NC(=O)[C@@H](NC(=O)[C@H](CCCCN)NC(=O)[C@H](CC(=O)O)NC(=O)[C@H](CCCNC(=N)N)NC(=O)[C@H](CCCNC(=N)N)NC(=O)[C@H](C)NC(=O)[C@@H](N)CCSC)[C@@H](C)O)NC(=O)CCCCCNC(=O)[C@H](CCCNC(=N)N)NC(=O)[C@H](CCCNC(=N)N)NC(=O)[C@H](CCCNC(=N)N)NC(=O)[C@H](CCCNC(=N)N)NC(=O)[C@H](C)NC(=O)[C@H](Cc1ccccc1)NC(=O)[C@H](CC(=O)O)NC(=O)[C@@H](NC(=O)[C@H](CCCCN)NC(=O)[C@H](CC(=O)O)NC(=O)[C@H](CCCNC(=N)N)NC(=O)[C@H](CCCNC(=N)N)NC(=O)[C@H](C)NC(=O)[C@@H](N)CCSC)[C@@H](C)O)C(N)=O)[C@@H](C)O (stereo partly drawn) |  | C57BL/6 mouse female, lungs | dose not given, 3 h | relative to: total | mean tissue distribution | 1.91% |
| CC(C)C[C@@H](NC(=O)[C@@H](CCCNC(=N)N)NC(=O)[C@@H](Cc1c[nH]cn1)NC(=O)[C@@H](Cc1c[nH]c2ccccc12)NC(=O)[C@@H](Cc1c[nH]cn1)NC(=O)[C@@H](Cc1ccccc1)NC(=O)[C@H](NC(=O)[C@@H](Cc1ccc(O)cc1)NC(=O)CNC(=O)CNC(=O)CCOCCOCCOCCNC(=O)CN1CCN(CC(=O)O)CCN(CC(=O)O)CC1)[C@H](C)O)C(=O)N[C@H](CC(N)=O)C(=O)N1CCC[C@@H]1C(=O)O [gallium-68 labelled] |  | male C57BL/6 mice | intravenous, 1.85 MBq, 60 min, added: antibody blocking | relative to: tumour over heart | tumour-to-tissue ratio | 4.62 ± 0.95 |
| N#[11C]c1ccc(-c2csc(NN=C3CCCC3)n2)cc1 |  | C57BL/6 mice, male, pancreas | intravenous, 3 MBq, 60 min |  | radioactivity uptake | 1.03 ± 0.35 %ID/g |
| CC1COCCN1c1nc(NCc2cccnc2C(F)(F)F)c2cccnc2n1 (stereo not drawn) |  | Sprague Dawley rat | oral, 100 mg/kg once daily, 7 days |  | toxicological findings | no effect |
| CCCCCCCCCCCCCCCC(=O)N[C@@H](CCC(=O)NCCOCCOCCC(=O)NCCOCCOCCC(=O)NCCCC[C@H](NC(=O)[C@H](CC(=O)O)NC(=O)[C@H](CC(C)C)NC(=O)[C@H](Cc1ccc(O)cc1)NC(=O)[C@H](CCCCN)NC(=O)[C@H](CO)NC(=O)[C@H](Cc1ccc(O)cc1)NC(=O)[C@H](CC(=O)O)NC(=O)[C@H](CO)NC(=O)[C@@H](NC(=O)[C@H](Cc1ccccc1)NC(=O)[C@@H](NC(=O)CNC(=O)[C@H](CCC(N)=O)NC(=O)[C@@H](CO)NC(=O)[C@@H](N)Cc1c[nH]cn1)[C@@H](C)O)[C@@H](C)O)C(=O)N[C@@H](CCCNC(=N)N)C(=O)N[C@@H](CCCNC(=N)N)C(=O)N[C@@H](C)C(=O)N[C@@H](CCC(N)=O)C(=O)N[C@@H](CC(=O)O)C(=O)N[C@@H](Cc1ccccc1)C(=O)N[C@H](C(=O)N[C@@H](CCC(N)=O)C(=O)N[C@@H](Cc1c[nH]c2ccccc12)C(=O)N[C@@H](CC(C)C)C(=O)N[C@@H](CC(C)C)C(=O)N[C@@H](CC(N)=O)C(=O)N[C@H](C(=O)NCC(=O)NCC(=O)N1CCC[C@H]1C(=O)N[C@@H](CO)C(=O)N[C@@H](CO)C(=O)NCC(=O)N[C@@H](C)C(=O)N1CCC[C@H]1C(=O)N1CCC[C@H]1C(=O)N1CCC[C@H]1C(=O)N[C@@H](CO)C(N)=O)[C@@H](C)O)C(C)C)C(=O)O | measured: AST | rhesus monkey, female | subcutaneous, 300 µg/kg once daily, 28 days |  | serum enzyme activity | 42.6 ± 7.1 U/L |
| CC1(C)C(=O)N(c2ccc(C#N)c(C(F)(F)F)c2)C(=S)N1c1ccc(C(=O)O)c(F)c1 |  | healthy male humans, plasma | oral, 160 mg, fasting, soft capsules |  | Tmax | 96 ± 40.9 h |
| CC[C@H](C)[C@H](NC(=O)[C@H](C)NC(=O)[C@H](CCCCN)NC(=O)[C@H](CC(C)C)NC(=O)[C@@H](N)Cc1ccccc1)C(=O)N[C@@H](CCCCN)C(=O)N[C@@H](CCCCN)C(=O)N[C@@H](Cc1ccccc1)C(=O)NCC(=O)N[C@@H](CCCCN)C(=O)N[C@@H](CCC(=O)O)C(=O)N[C@@H](Cc1ccccc1)C(=O)N[C@@H](CCCCN)C(=O)N[C@@H](CCCCN)C(=O)N[C@H](C(=O)NCC(=O)N[C@@H](C)C(=O)N[C@@H](CCCCN)C(=O)N[C@@H](CC(C)C)C(=O)N[C@@H](CCCCN)C(=O)O)[C@@H](C)CC |  | human red blood cells | 8 mg/L, 1 h |  | hemolysis | -0.102% and 0.449% and 0.388% |
| COc1ccc(CNc2ccc3c(c2)S(=O)(=O)C=C3)cc1 | flow cytometry | male C57BL/6 mice, spleen | i.p., 20 mg/kg, 8 days | relative to: CD45+ cells | Gr-1+ CD11b+ cells | 1.2% |
| CC(C)C[C@H](NC(=O)[C@H](Cc1ccc(O)cc1)NC(=O)[C@H](C)NC(=O)[C@H](CC(N)=O)NC(=O)[C@H](CC(C)C)NC(=O)[C@H](C)NC(=O)[C@@H](NC(=O)[C@H](CCCCN)NC(=O)CNC(=O)[C@@H](NC(=O)[C@H](CCCCN)NC(=O)[C@H](CCCCN)NC(=O)CNC(=O)[C@@H](NC(=O)[C@H](Cc1c[nH]cn1)NC(=O)[C@@H](NC(=O)[C@H](C)NC(=O)[C@H](CCCCN)NC(=O)[C@H](CCCCN)NC(=O)[C@H](Cc1ccccc1)NC(=O)[C@H](Cc1c[nH]c2ccccc12)NC(=O)[C@H](CCCCN)NC(=O)[C@H](CCCCN)NC(=O)[C@H](CC(C)C)NC(=O)CN)C(C)C)C(C)C)C(C)C)C(C)C)C(N)=O |  | zebrafish embryos 4 hpf, E3 medium | 24 h |  | chronic toxic concentration | 5 µM |
| CN1Cc2cc(Cl)ccc2-n2c(nnc2C2CCN(c3cccc(F)n3)CC2)C1 |  | Sprague-Dawley rats male, striatum | intravenous, 0.03 mg/kg |  | AUC | 4.48 ng·h/mL |
| CC[C@H](C)[C@H](NC(=O)[C@H](CCCCN)NC(=O)CNC(=O)[C@H](CC(C)C)NC(=O)[C@H](Cc1ccccc1)NC(=O)[C@H](CCCCN)NC(=O)[C@H](CO)NC(=O)[C@H](Cc1ccccc1)NC(=O)[C@H](Cc1c[nH]c2ccccc12)NC(=O)[C@H](CCC(N)=O)NC(=O)[C@@H](NC(=O)[C@H](Cc1ccccc1)NC(=O)CCCCCNC(=O)CN1CCN(CC(=O)O)CCN(CC(=O)O)CCN(CC(=O)O)CC1)C(C)C)C(=O)N[C@@H](CCC(=O)O)C(=O)N1CCC[C@H]1C(=O)N[C@@H](CC(=O)O)C(=O)N[C@H](C(=O)N[C@@H](CO)C(=O)N[C@@H](CCC(N)=O)C(=O)N[C@H](C(=O)N[C@@H](CCC(N)=O)C(=O)N[C@@H](CC(=O)O)C(=O)N1CCC[C@H]1C(=O)N[C@@H](CC(N)=O)C(=O)N[C@@H](CC(=O)O)C(=O)N[C@@H](CCC(N)=O)C(=O)N[C@@H](Cc1ccc(O)cc1)C(=O)N[C@@H](CCC(=O)O)C(=O)N1CCC[C@H]1C(=O)N[C@@H](Cc1ccccc1)C(=O)O)C(C)C)C(C)C [copper-64 labelled] |  | C57BL/6 male mouse, tumour-naive, lung | 1 h |  | tissue uptake | 5.81 ± 0.7 %ID/g |
| COc1cc2c(cc1O)C(CCc1ccc(Cl)cc1)N([11CH3])CC2 (stereo not drawn) | PET | Sprague-Dawley rat, male, brain NR2B-rich regions | intravenous, 20.5 MBq, no carrier added |  | half-maximal concentration, time to | 30 min |
| CSCC[C@H](NC(=O)CNC(=O)[C@H](CCCCN)NC(=O)[C@H](CC(C)C)NC(=O)[C@@H]1CCCN1C(=O)[C@H](CO)NC(=O)[C@H](Cc1c[nH]cn1)NC(=O)[C@H](Cc1c[nH]c2ccccc12)NC(=O)[C@H](CCCNC(=N)N)NC(=O)[C@H](CC(C)C)NC(=O)[C@H](CCCNC(=N)N)NC(=O)[C@H](Cc1c[nH]c2ccccc12)NC(=O)[C@H](CS)NC(=O)CCCCCNC(=O)CN1CCN(CC(=O)O)CCN(CC(=O)O)CCN(CC(=O)O)CC1)C(=O)O [copper-64 labelled] |  | BALB/c nude mouse, Huh-7 tumour, tumour and blood | intravenous, 1.85 MBq, 18 h, ex vivo biodistribution | relative to: tumour over blood | tumour-to-blood ratio | 6.67 |
| [2H]C([2H])([18F])[C@]([2H])(N)C(=O)O | PET | athymic nude mouse, U-87 MG tumour | 15 min |  | maximum tumour uptake | 2 to 3 %ID/cc |
| O=C1NC2(CC2)COc2ncc(F)cc2[C@H]2COCCN2c2ccn3ncc1c3n2 |  | Sprague-Dawley rat, male, serum | oral, 20 mg/kg/day, 4 weeks daily, end of treatment |  | albumin | 31.4 ± 3.2 g/L |

For quick reference, copied from above:
| Structure (SMILES) | assay | test system | setting | scale | measurement | result |
| --- | --- | --- | --- | --- | --- | --- |
| CC(C)C[C@@H](NC(=O)[C@@H](CCCNC(=N)N)NC(=O)[C@@H](Cc1c[nH]cn1)NC(=O)[C@@H](Cc1c[nH]c2ccccc12)NC(=O)[C@@H](Cc1c[nH]cn1)NC(=O)[C@@H](Cc1ccccc1)NC(=O)[C@H](NC(=O)[C@@H](Cc1ccc(O)cc1)NC(=O)CNC(=O)CNC(=O)CCOCCOCCOCCNC(=O)CN1CCN(CC(=O)O)CCN(CC(=O)O)CC1)[C@H](C)O)C(=O)N[C@H](CC(N)=O)C(=O)N1CCC[C@@H]1C(=O)O [gallium-68 labelled] |  | male C57BL/6 mice | intravenous, 1.85 MBq, 60 min, added: antibody blocking | relative to: tumour over heart | tumour-to-tissue ratio | 4.62 ± 0.95 |
| O=C1NC2(CC2)COc2ncc(F)cc2[C@H]2COCCN2c2ccn3ncc1c3n2 |  | Sprague-Dawley rat, male, serum | oral, 20 mg/kg/day, 4 weeks daily, end of treatment |  | albumin | 31.4 ± 3.2 g/L |
